Assay results gathered from unrelated publications.
Every numbered part comes from another study and shows a few of its results, in no order.

Sample 1 — technique: protein-binding microarray; form: double-stranded DNA, one strand shown; sample: in vitro; tested at: not given; reading: higher = stronger binding
Target: Transcription factor SOX-2, HMG box (SOX2, Homo sapiens, UniProt P48431, residues 19-118)
UniProt P48431, sequence (19-118, looked up): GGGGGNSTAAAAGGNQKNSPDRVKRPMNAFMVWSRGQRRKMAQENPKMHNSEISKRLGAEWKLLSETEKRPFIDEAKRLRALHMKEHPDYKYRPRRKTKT
Notes: k-mer, scored over probes, only values ≥0.25
| Oligonucleotide | E-score |
| --- | --- |
| ATGATAA | 0.291 |
| ATCATTG | 0.306 |
| ATTATTA | 0.43 |
| ATTTCAA | 0.279 |
| AATATTA | 0.332 |
| ATATGTG | 0.333 |
| CAAAACA | 0.283 |
| CAATATG | 0.321 |
| ATTAATA | 0.351 |
| ATAAAAA | 0.345 |
| ACAAATA | 0.331 |
| CGATTCA | 0.326 |
| CCCATTC | 0.274 |
| CATTGAC | 0.364 |
| ACCATTG | 0.323 |
| ATAATGA | 0.396 |
| CAATGAA | 0.377 |
| CATAATA | 0.355 |
| ATGAATC | 0.336 |
| ACACAAT | 0.458 |
| AAAATTG | 0.274 |
| CAATGCA | 0.311 |

Sample 2 — technique: EMSA with sequencing; form: double-stranded DNA, one strand shown; sample: in vitro; tested at: 10 and 20 nM; reference: negative control set to 0; reading: higher = stronger binding
Target: Hepatocyte nuclear factor 3-alpha (Foxa1, Mus musculus, UniProt P35582, residues 1-468, full length assumed)
Notes: whole designed probe, mean of two concentrations, ends assumed
Construct (chain): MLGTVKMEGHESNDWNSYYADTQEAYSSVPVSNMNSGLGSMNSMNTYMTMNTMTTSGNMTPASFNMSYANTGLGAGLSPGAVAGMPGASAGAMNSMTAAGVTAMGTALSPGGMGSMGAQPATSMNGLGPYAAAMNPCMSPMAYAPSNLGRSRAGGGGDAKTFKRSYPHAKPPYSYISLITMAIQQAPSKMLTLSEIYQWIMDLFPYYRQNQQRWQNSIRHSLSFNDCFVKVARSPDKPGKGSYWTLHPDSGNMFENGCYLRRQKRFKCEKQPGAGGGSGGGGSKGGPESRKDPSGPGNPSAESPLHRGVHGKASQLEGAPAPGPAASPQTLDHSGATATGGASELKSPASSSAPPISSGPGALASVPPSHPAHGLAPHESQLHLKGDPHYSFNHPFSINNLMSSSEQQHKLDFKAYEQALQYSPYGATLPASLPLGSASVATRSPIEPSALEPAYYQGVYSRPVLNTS
| Oligonucleotide | normalised bound fraction [ratio] |
| --- | --- |
| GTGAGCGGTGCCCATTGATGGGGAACGCACCACTCAGCCCCTCCTAGTCCGCTGGAGAAAGTGGCTGAGGGGGTGGTGGGGGATAATTGCATTTCCAAAGTCCGGGCAATCAGCCAATGTAATCTGGCACCTGCATCACTGTGTGGGCTCTCTAGGCAACAGGTAAAATACATCAAATACACACAATTTCCTGACATTCCAATGCATTTCTGCGTGAGCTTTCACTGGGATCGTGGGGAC | 0.00277 |
| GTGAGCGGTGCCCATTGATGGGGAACATCTTCCCCCTCTTCCTTGCCCCACCAGCTCACCTTCCCGGGTATCTGCAAATAAGTATTTATTTTCAAGCCGGCATTCGTTAACCCTCTTCACGCGCATACTGCTGTTTGCTCTGGATCTAACATGGTCCTTTGGCGACGCCAGGCTCCGGGAGAGCAAAGCACCGTGTCAGGGCCATGATCCGGGGTGGCCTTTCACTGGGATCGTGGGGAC | 0.199 |
| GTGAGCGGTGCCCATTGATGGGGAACTGCCACGGACGTGCAGCCGTTAAAATATTAATGTCTGGCATGTGGCAAACATTTAAAATATGCTGAGACTTGGGAGCTGTTGAGCTGGGCCTAGATGACACACCGCCTCACCTGGGTGTAGATTGCTATGTAAATGCCAAGGATTCCTCCCTGAAGCTGGAACCTGCACTCCTCTTCTCACCCCTCATTTCCTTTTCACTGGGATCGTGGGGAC | -0.0256 |
| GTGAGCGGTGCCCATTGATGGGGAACATCTTCCCCCTCTTCCTTGCCCCACCAGCTCACCTTCCCGGGTTATTTGCAGATAGGAAAATAAATAAAGCCGGCATTCGTTAACGCAGTTCACGCGCATACTGCTGTTTGCTCTGCATGAATCATGGTCCTTACGCGAGGCGTGGCTCCGGGAGAGCAAAGCACCGTGTCAGGCGCATGATCCGGGGTGGCCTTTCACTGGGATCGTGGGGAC | 0.359 |
| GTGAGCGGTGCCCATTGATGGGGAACATCTTCCCCCTCTTCCTTGCCCCACCAGCTCACCTTCCCGGGTCAAAGTAAACAAGTGTTTACTTTGAAGCCGGCATTCGTTAACCCTCTTCACGCGCATACTGCTGTTTGCTCTGGATCTAACATGGTCCTTTGGCGACGCCAGGCTCCGGGAGAGCAAAGCACCGTGTCAGGGCCATGATCCGGGGTGGCCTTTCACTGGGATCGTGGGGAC | 0.454 |
| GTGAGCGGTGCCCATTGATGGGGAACATCCACGAACCTGGCCCTGTCTGGTAACCACAGTGAACCATCGCAAGATACAGCACTATAATGACTCACTGTGCCCAGTTGGGCTGGAACCAGTGTTGACACATCACATCCTCAGGGACACGGAAGTGTACTTGTTTTTGGAGAGGGACTAGACCTTCATCCTTGAGGTGAAGAAGATTTTCTCTCCAGGGTGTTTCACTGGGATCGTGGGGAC | 0.113 |
| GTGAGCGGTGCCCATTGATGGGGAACTCATGAAAGGCTTTGCATGCCATTTTAACAAGTACGGGCTTTATCTTAACCCTCTAGGAAACAGGGAGGCACATGAACACCCTAAGTAGGAAAGTAATTTGTTACTTCTAATTTGTGTTTTAGAAAGGTTCTGGAGCAGTCTGGAAGATGTAATGGTTGCTTGTCAGCTCATGAGCTGGTGGGGTTGGCTGCTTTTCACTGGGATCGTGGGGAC | -0.0842 |
| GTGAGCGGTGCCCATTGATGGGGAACGGGACAGATTACTCTCTGTACAGAGTAAGCCCCAGGGACTTTTCTGGTTGCAAAAGTAATCCTGGTACTTTCTGGATTTTCACTAGATTAAAGTAATCTAGAACAATATAACAGGCAAACTCCTTAAGTTAGACATCACTTACACATATCATAAGAGGAAAATAATTTATAAATGTTCCCAAATTTTCCTCCATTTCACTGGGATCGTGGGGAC | -0.0643 |

Sample 3 — technique: protein-binding microarray; form: double-stranded DNA, one strand shown; sample: in vitro; tested at: 250 nM; notes: 60-bp whole probe; with: salmon DNA 0.4 mg/ml; reference: random background probes; reading: higher = stronger binding; constant ends, left off below: GCCTAGCAC … GTCTTGATTCGCTTGACGCTGCTG
Target: Interferon regulatory factor 7, full length, phosphomimetic (IRF7, Homo sapiens, UniProt Q92985, residues 1-503, S101K/S471D/S472D/S475D/S476D/S477D/S483D/S484D/S487D)
UniProt Q92985, sequence (whole entry, unmodified, looked up): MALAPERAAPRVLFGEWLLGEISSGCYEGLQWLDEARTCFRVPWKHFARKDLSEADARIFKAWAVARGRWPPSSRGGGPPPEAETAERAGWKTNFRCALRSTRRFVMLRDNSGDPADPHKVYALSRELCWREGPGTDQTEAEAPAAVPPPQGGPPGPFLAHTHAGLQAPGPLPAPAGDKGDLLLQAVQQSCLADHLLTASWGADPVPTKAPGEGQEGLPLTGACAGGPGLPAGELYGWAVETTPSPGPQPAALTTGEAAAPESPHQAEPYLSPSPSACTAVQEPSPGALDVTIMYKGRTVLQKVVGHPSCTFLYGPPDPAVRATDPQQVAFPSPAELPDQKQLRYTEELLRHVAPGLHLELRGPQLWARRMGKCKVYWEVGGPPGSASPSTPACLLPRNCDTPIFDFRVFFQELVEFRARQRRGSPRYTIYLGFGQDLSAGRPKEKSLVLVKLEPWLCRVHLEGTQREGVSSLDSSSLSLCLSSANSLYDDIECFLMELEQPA
| Oligonucleotide | log fluorescence |
| --- | --- |
| GACGATATCAGTCTCGATACGTGCTAG | 0.735 z-score |
| AACAGAGGAATGGATACAGAGTGCTAG | -0.164 z-score |
| TTAGAACTGAATTTCGATTAGTGCTAG | 1.09 z-score |
| TTAGGTTTCATTATCCTTTAGTGCTAG | 4.56 z-score |
| TTAGGTATCGACTATCAGTTAGTGCTA | 0.34 z-score |
| TAATTTCCATTTTCTAAATGCGTGCTA | 4.23 z-score |
| GCTGTCATCGATTTCTTCCCGTGCTAG | -0.0404 z-score |
| GACGATATCAGTATCGACACGTGCTAG | 0.0726 z-score |
| CTCCCTTTCAGTTTTCCTATGTGCTAG | 1.18 z-score |
| GACGATTTCGGGTTCCGAGACGTGCTA | 1.87 z-score |
| TTAGGTTTCGACAGTGGGTTAGTGCTA | 1.66 z-score |
| TTACGACTGGACTTTCGGTTAGTGCTA | 0.921 z-score |
| TGAGGACTGGGACTGGGTTAGTGCTAG | -0.489 z-score |
| GACGATTTCAGTATCGAGCCGTGCTAG | 0.102 z-score |
| GACGCTCTCGGTCTCGGGACGTGCTAG | 0.229 z-score |
| TTTTCATTATTGTGTCAACTTGTGCTA | 1.56 z-score |
| TTAGTTCTCGGTTTCGGTTAGTGCTAG | 10.4 z-score |
| GACGGACTGATTCTCCTGACGTGCTAG | -0.165 z-score |
| TCATATGTCTGTTTTTGACTGTGCTAG | 0.349 z-score |
| TTAGGTTTCCTACAGCTTTAGTGCTAG | 0.524 z-score |

Sample 4 — technique: RNA Bind-n-Seq; form: RNA; sample: in vitro; tested at: 365 nM; reference: no-protein control; reading: higher = stronger binding
Target: RNA binding protein fox-1 homolog 2, RRM domain, GST-SBP tag (RBFOX2, Homo sapiens, UniProt O43251-10, residues 100-194)
Notes: natural RNA segment, single round, ends assumed
Residues (chain): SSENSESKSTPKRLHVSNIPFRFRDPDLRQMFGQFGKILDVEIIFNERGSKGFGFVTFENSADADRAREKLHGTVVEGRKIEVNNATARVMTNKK
| Oligonucleotide | RBNS enrichment (R) |
| --- | --- |
| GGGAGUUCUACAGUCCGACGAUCCCCUUGGGUCCUAGUGUUAUGUUCCAGUCUGCCCACCUGUGCUCAGGAUGCAGCCCUGGGAUCCAGCACCCAUGGAAGCUUCUGCUGGGAUGGUGUCACCUAUGGGUUUUUGGAAUUCUCGGGUGCCAA | 0.3 |
| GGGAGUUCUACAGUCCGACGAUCUAACACAUUAGGAUUGUGGGACACAAGAUCCUCUCUGAACCUCCUGGUUAAGGAACGUUCCUGCAAACAUUCAAGUAGACCUUCUAUAACAGACUGCAGCGUGCAUGGCCUGGAAUUCUCGGGUGCCAA | 1.01 |
| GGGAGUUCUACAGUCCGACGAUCGAUCUUUUCCUUCAAGAACAUUCUUUUCUAUAGAAAAAUGAUUCCCUGUGAUCUUCUGGAAGCUCCAAAGCUGAAACCCUUCAGCUUUGCAACUAAAAAUAUUACAGUUUUGGAAUUCUCGGGUGCCAA | 0.318 |
| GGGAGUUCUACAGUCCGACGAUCCCACCACGCCAUCAUCGUCACCGUUGACAGAACAGUCCUUAAUCCAGAAAGCCUGACAUGAAGGAAGAGGAGACUCUUCGAGGAGCACUUUGGGUCCGGAGGGCGAGACUUGGAAUUCUCGGGUGCCAA | 0.537 |
| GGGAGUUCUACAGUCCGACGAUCAUAAAAACUGACCUUCUUUAAUCAUAUACUUGUCUUUUGUAAAUAGCAGCUUUUGUGUCAUUCUCCCCACUUUAUUAGUUAAUUUAAAUUGGAAAAAACCCUCAAACUAAUGGAAUUCUCGGGUGCCAA | 0.813 |
| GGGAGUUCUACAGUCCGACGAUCGGGAGACUGGAUAUAGUAGUGCAUACCUAUAACUCCAGCACUUGGGACGUGGAGGUAGGUGGAUCACUGCAAGUUUGAGGCUAGCAUGGUCAAUAAAGAUAGUUCAAGGCUGGAAUUCUCGGGUGCCAA | 10.3 |
| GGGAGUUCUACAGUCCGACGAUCCCAGUGGAGGUUUGUCGGGCACCAGCCAGCGUAGCAGGGUCGGGAAAGGCCACCUGUCCCACUCCUACGAUACGCUACUAUAAAGAGAAGACGAAAUAGUGACAUAAUAUUGGAAUUCUCGGGUGCCAA | 0.346 |
| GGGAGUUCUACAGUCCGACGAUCCUGAUUCAGUGCCAAUAGCCACAGUGUGGCUCAAGAUACAGGUAGAGGGGCUACACUAGCCCACCCCAUUUAGAGUGGUCCUGUCUACUCUACAGCAACUCUCUUGGGCUUGGAAUUCUCGGGUGCCAA | 0.312 |
| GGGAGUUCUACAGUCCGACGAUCCUGGGUUCAAAAAAAAAAAUUCCAGUGUCUGUAUACAGGAGCACUUGGUUUGGGGGUUCAGGCUCUAGGAUCGAUUCCAGAAGGAGCCUUGAGCCCCAACCCCGUGAAAAUGGAAUUCUCGGGUGCCAA | 0.27 |
| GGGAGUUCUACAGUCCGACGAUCCAUUGUCUGUGAAGUGAGACCUUCCUUUUACUUUUCUUCUAUUGCCUCUGAGAGCAUCAGGCCUAGAGGCCUGACUGCCAAGCCAUGGGUAGCCUGGGUGUAAAACCUGGUGGAAUUCUCGGGUGCCAA | 0.293 |
| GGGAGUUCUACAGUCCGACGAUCUCCUUUCACAGCCGGUCUCUCUGCCAGGAAAUGGGGGAAGGAACUAGAACCACCUGCACCUUGAGAUGUUUCUGUAAAUGGGUACUUGUGAUCACACUACGGGAAUCUCUUGGAAUUCUCGGGUGCCAA | 0.27 |
| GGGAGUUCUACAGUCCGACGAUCUUCCAGACCAACUGUAGAGAUACCUGGCAUUUUGAAGAAAGCCUAGACUGGAGAGCAGGGCCUCUCUUGGGAAGGACACAAGGCGGGCAAGGCUGCUGGCAGACUUCUCCUGGAAUUCUCGGGUGCCAA | 0.445 |

Repeated from above (sample 1):
| Oligonucleotide | E-score |
| --- | --- |
| ATAAAAA | 0.345 |
| ACAAATA | 0.331 |
| CGATTCA | 0.326 |
| CCCATTC | 0.274 |
| CATTGAC | 0.364 |
| ACCATTG | 0.323 |
| ATAATGA | 0.396 |
